Assay results gathered from unrelated publications.
Lines come from different studies, so protocols differ. pEC50, pIC50: −log10 of the molar value.
DCN1-like protein 1: DCN1-like protein 1 (Homo sapiens, UniProt Q96GG9)
Sequence of UniProt Q96GG9 (whole entry, looked up): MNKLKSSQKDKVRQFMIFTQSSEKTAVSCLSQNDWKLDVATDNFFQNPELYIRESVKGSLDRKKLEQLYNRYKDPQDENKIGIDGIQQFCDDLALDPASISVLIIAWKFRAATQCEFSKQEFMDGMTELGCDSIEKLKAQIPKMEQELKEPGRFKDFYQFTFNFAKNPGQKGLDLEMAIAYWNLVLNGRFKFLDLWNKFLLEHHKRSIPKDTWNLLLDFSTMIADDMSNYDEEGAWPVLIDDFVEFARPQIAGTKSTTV
GLP1R: Glucagon-like peptide 1 receptor (GLP1R, Homo sapiens, UniProt P43220)
Sequence of UniProt P08588 (whole entry, looked up): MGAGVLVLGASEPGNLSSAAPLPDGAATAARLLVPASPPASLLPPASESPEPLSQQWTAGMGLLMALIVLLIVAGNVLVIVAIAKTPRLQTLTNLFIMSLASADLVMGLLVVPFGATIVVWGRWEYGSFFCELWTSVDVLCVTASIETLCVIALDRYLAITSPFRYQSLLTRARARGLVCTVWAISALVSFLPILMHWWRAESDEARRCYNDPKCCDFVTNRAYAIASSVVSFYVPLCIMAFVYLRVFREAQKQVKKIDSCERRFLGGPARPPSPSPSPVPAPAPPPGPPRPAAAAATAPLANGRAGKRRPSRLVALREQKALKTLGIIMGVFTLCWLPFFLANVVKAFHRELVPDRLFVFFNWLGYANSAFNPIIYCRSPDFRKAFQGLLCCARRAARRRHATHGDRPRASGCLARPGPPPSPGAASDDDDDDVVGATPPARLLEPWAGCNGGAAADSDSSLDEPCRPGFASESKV
Sequence of UniProt Q9Y6A2 (whole entry, looked up): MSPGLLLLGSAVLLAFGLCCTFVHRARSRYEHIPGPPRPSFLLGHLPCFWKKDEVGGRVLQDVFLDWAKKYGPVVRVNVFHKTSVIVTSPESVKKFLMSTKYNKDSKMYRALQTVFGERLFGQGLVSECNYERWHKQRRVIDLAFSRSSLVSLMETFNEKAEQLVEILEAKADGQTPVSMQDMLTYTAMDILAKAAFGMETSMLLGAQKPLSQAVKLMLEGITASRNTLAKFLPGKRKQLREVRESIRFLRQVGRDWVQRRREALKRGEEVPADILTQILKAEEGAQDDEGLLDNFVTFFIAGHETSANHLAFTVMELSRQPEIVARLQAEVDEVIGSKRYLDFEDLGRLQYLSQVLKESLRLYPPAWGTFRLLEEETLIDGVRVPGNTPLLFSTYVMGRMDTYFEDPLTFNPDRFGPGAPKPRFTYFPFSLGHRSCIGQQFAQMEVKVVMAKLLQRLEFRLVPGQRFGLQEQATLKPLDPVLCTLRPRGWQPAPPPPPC
Sequence of UniProt O14980 (whole entry, looked up): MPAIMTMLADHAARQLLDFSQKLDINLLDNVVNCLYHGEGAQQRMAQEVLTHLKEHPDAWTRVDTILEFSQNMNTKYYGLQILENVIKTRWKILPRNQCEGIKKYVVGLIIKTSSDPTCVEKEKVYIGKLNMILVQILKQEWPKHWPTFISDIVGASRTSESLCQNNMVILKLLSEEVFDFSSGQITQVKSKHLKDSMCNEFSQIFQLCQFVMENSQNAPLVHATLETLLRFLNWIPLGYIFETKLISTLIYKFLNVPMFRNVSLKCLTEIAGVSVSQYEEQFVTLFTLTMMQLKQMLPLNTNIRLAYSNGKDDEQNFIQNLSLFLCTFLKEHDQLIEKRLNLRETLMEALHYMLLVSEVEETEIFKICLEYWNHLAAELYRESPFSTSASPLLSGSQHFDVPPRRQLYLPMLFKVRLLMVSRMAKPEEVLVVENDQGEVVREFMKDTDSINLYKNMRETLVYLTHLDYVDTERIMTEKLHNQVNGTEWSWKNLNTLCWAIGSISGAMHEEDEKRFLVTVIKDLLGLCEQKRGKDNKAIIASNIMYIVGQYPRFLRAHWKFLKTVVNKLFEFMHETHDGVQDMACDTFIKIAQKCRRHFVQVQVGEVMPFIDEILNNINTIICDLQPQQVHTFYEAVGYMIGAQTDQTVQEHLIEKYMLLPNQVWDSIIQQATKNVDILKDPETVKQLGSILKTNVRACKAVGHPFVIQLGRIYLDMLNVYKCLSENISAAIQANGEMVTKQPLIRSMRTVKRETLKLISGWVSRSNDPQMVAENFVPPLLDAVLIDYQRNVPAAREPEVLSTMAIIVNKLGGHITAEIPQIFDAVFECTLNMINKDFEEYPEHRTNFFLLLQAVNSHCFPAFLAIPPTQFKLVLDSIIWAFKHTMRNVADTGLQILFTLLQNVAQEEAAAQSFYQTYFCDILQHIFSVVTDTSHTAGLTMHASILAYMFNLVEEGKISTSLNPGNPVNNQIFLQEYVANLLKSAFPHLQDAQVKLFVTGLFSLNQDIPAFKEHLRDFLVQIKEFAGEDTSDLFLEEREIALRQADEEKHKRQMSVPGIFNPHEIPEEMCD

`Cc1nn(-c2ccccc2C(F)(F)F)c2c1[C@H](c1ccc(F)cc1)[C@H](NC(=O)c1cccc(C(F)(F)F)c1)C(=O)N2` has a pIC50 of under 4.82 (DCN1-like protein 1).
With `COc1cc(Nc2ncc(F)c(Nc3ccc4c(n3)NC(=O)C(C)(C)O4)n2)cc(OC)c1OC` the pIC50 was under 5.00 (ADRB1 (Homo sapiens, UniProt P08588)).
`CC(=O)NCN1C(=O)[C@@H](NC(=O)c2cccc(C(F)(F)F)c2)[C@@H](c2ccc(F)cc2)c2c(C)nn(-c3ccccc3)c21` gave a pIC50 of under 4.82 (DCN1-like protein 1).
With `CC[C@H](C)[C@H](NC(=O)[C@H](Cc1ccccc1)NC(=O)[C@H](CCC(=O)O)NC(=O)[C@H](CCCNC(=N)N)NC(=O)[C@H](C)NC(=O)[C@H](C)NC(=O)[C@H](CCC(N)=O)NC(=O)[C@H](CCC(=O)O)NC(=O)[C@H](CCC(=O)O)NC(=O)[C@H](CC(C)C)NC(=O)[C@H](Cc1ccc(O)cc1)NC(=O)[C@H](CO)NC(=O)[C@H](CO)NC(=O)[C@@H](NC(=O)[C@H](CC(=O)O)NC(=O)[C@H](CO)NC(=O)[C@@H](NC(=O)[C@H](Cc1ccccc1)NC(=O)[C@@H](NC(=O)CNC(=O)[C@H](CCC(=O)O)NC(=O)[C@H](C)NC(=O)CCc1cnc[nH]1)[C@@H](C)O)[C@@H](C)O)C(C)C)C(=O)N[C@@H](C)C(=O)N[C@@H](Cc1c[nH]c2ccccc12)C(=O)N[C@@H](CC(C)C)C(=O)N[C@H](C(=O)N[C@@H](CCCCNC(=O)COCCOCCNC(=O)COCCOCCNC(=O)CC[C@H](NC(=O)CCCCCCCCCCCCCCCCC(=O)O)C(=O)O)C(=O)NCC(=O)N[C@@H](CCCNC(=N)N)C(=O)N[C@@H](CCCCNc1c(NCCCCCN(O)C(=O)CCC(=O)NCCCCCN(O)C(=O)CCC(=O)NCCCCCN(O)C(C)=O)c(=O)c1=O)C(=O)NCC(=O)NCC(=O)N[C@@H](CO)C(=O)N[C@@H](CCCCNc1c(NCCCCCN(O)C(=O)CCC(=O)NCCCCCN(O)C(=O)CCC(=O)NCCCCCN(O)C(C)=O)c(=O)c1=O)C(=O)NCC(=O)NCC(=O)N[C@@H](CO)C(=O)N[C@@H](CCCCNc1c(NCCCCCN(O)C(=O)CCC(=O)NCCCCCN(O)C(=O)CCC(=O)NCCCCCN(O)C(C)=O)c(=O)c1=O)C(=O)O)C(C)C` the pEC50 was 10.85 (GLP1R; cAMP reporter gene, agonist, CRE luciferase; BHK; without Zr, 0% HSA).
`C[C@H]1CN(c2n[nH]c3nc(N[C@H]4CC[C@H](NS(=O)(=O)CCC(F)(F)F)CC4)ncc23)CCO1` gave a pIC50 of at most 4.70 (Exportin-1 (XPO1, Homo sapiens, UniProt O14980); biochemical).
For `CC[C@H](C)[C@H](NC(=O)[C@H](Cc1ccccc1)NC(=O)[C@H](CCC(=O)O)NC(=O)[C@H](CCCNC(=N)N)NC(=O)[C@H](C)NC(=O)[C@H](C)NC(=O)[C@H](CCC(N)=O)NC(=O)[C@H](CCC(=O)O)NC(=O)[C@H](CCC(=O)O)NC(=O)[C@H](CC(C)C)NC(=O)[C@H](Cc1ccc(O)cc1)NC(=O)[C@H](CO)NC(=O)[C@H](CO)NC(=O)[C@@H](NC(=O)[C@H](CC(=O)O)NC(=O)[C@H](CO)NC(=O)[C@@H](NC(=O)[C@H](Cc1ccccc1)NC(=O)[C@@H](NC(=O)CNC(=O)[C@H](CCC(=O)O)NC(=O)[C@H](C)NC(=O)CCc1cnc[nH]1)[C@@H](C)O)[C@@H](C)O)C(C)C)C(=O)N[C@@H](C)C(=O)N[C@@H](Cc1c[nH]c2ccccc12)C(=O)N[C@@H](CC(C)C)C(=O)N[C@H](C(=O)N[C@@H](CCCCNc1c(NCCCCCN(O)C(=O)CCC(=O)NCCCCCN(O)C(=O)CCC(=O)NCCCCCN(O)C(C)=O)c(=O)c1=O)C(=O)NCC(=O)N[C@@H](CCCNC(=N)N)C(=O)N[C@@H](CCCCNc1c(NCCCCCN(O)C(=O)CCC(=O)NCCCCCN(O)C(=O)CCC(=O)NCCCCCN(O)C(C)=O)c(=O)c1=O)C(=O)NCC(=O)NCC(=O)N[C@@H](CO)C(=O)N[C@@H](CCCCNC(=O)COCCOCCNC(=O)COCCOCCNC(=O)CC[C@H](NC(=O)CCCCCCCCCCCCCCCCC(=O)O)C(=O)O)C(=O)O)C(C)C`, the pEC50 was 11.16 (GLP1R; cAMP reporter gene, agonist, CRE luciferase; BHK; with Zr, 0% HSA).
The pEC50 of `O=C(c1cccnc1-c1ccncc1)N1CCC(O)(Cc2ccccc2)CC1` is reported as 7.80 (CYP46A1 (Homo sapiens, UniProt Q9Y6A2); enzyme occupancy, PET; healthy adults; PK/PD model).
With `Cc1cc(N)c2cc(NC(=O)Nc3ccc4nc(C)cc(N)c4c3)ccc2n1` the pIC50 was 5.27 (Genome polyprotein, NS5 methyltransferase domain (pol, Dengue virus type 3, UniProt Q6YMS4)).
`CC[C@H](C)[C@H](NC(=O)[C@H](Cc1ccccc1)NC(=O)[C@H](CCC(=O)O)NC(=O)[C@H](CCCNC(=N)N)NC(=O)[C@H](C)NC(=O)[C@H](C)NC(=O)[C@H](CCC(N)=O)NC(=O)[C@H](CCC(=O)O)NC(=O)[C@H](CCC(=O)O)NC(=O)[C@H](CC(C)C)NC(=O)[C@H](Cc1ccc(O)cc1)NC(=O)[C@H](CO)NC(=O)[C@H](CO)NC(=O)[C@H](CCCCNc1c(NCCCCCN(O)C(=O)CCC(=O)NCCCCCN(O)C(=O)CCC(=O)NCCCCCN(O)C(C)=O)c(=O)c1=O)NC(=O)[C@H](CC(=O)O)NC(=O)[C@H](CO)NC(=O)[C@@H](NC(=O)[C@H](Cc1ccccc1)NC(=O)[C@@H](NC(=O)CNC(=O)[C@H](CCC(=O)O)NC(=O)[C@H](C)NC(=O)CCc1cnc[nH]1)[C@@H](C)O)[C@@H](C)O)C(=O)N[C@@H](C)C(=O)N[C@@H](Cc1c[nH]c2ccccc12)C(=O)N[C@@H](CC(C)C)C(=O)N[C@H](C(=O)N[C@@H](CCCNC(=N)N)C(=O)NCC(=O)N[C@@H](CCCNC(=N)N)C(=O)N[C@@H](CCCCNC(=O)COCCOCCNC(=O)COCCOCCNC(=O)CC[C@H](NC(=O)CCCCCCCCCCCCCCCCC(=O)O)C(=O)O)C(=O)NCC(=O)NCC(=O)N[C@@H](CO)C(=O)N[C@@H](CCCCNc1c(NCCCCCN(O)C(=O)CCC(=O)NCCCCCN(O)C(=O)CCC(=O)NCCCCCN(O)C(C)=O)c(=O)c1=O)C(=O)O)C(C)C` has a pEC50 of 9.09 (GLP1R; cAMP reporter gene, agonist, CRE luciferase; BHK; without Zr, 1% HSA).

For quick reference, copied from above:
With `CC[C@H](C)[C@H](NC(=O)[C@H](Cc1ccccc1)NC(=O)[C@H](CCC(=O)O)NC(=O)[C@H](CCCNC(=N)N)NC(=O)[C@H](C)NC(=O)[C@H](C)NC(=O)[C@H](CCC(N)=O)NC(=O)[C@H](CCC(=O)O)NC(=O)[C@H](CCC(=O)O)NC(=O)[C@H](CC(C)C)NC(=O)[C@H](Cc1ccc(O)cc1)NC(=O)[C@H](CO)NC(=O)[C@H](CO)NC(=O)[C@@H](NC(=O)[C@H](CC(=O)O)NC(=O)[C@H](CO)NC(=O)[C@@H](NC(=O)[C@H](Cc1ccccc1)NC(=O)[C@@H](NC(=O)CNC(=O)[C@H](CCC(=O)O)NC(=O)[C@H](C)NC(=O)CCc1cnc[nH]1)[C@@H](C)O)[C@@H](C)O)C(C)C)C(=O)N[C@@H](C)C(=O)N[C@@H](Cc1c[nH]c2ccccc12)C(=O)N[C@@H](CC(C)C)C(=O)N[C@H](C(=O)N[C@@H](CCCCNC(=O)COCCOCCNC(=O)COCCOCCNC(=O)CC[C@H](NC(=O)CCCCCCCCCCCCCCCCC(=O)O)C(=O)O)C(=O)NCC(=O)N[C@@H](CCCNC(=N)N)C(=O)N[C@@H](CCCCNc1c(NCCCCCN(O)C(=O)CCC(=O)NCCCCCN(O)C(=O)CCC(=O)NCCCCCN(O)C(C)=O)c(=O)c1=O)C(=O)NCC(=O)NCC(=O)N[C@@H](CO)C(=O)N[C@@H](CCCCNc1c(NCCCCCN(O)C(=O)CCC(=O)NCCCCCN(O)C(=O)CCC(=O)NCCCCCN(O)C(C)=O)c(=O)c1=O)C(=O)NCC(=O)NCC(=O)N[C@@H](CO)C(=O)N[C@@H](CCCCNc1c(NCCCCCN(O)C(=O)CCC(=O)NCCCCCN(O)C(=O)CCC(=O)NCCCCCN(O)C(C)=O)c(=O)c1=O)C(=O)O)C(C)C` the pEC50 was 10.85 (GLP1R; cAMP reporter gene, agonist, CRE luciferase; BHK; without Zr, 0% HSA).
